{"data": "Measurements gathered from unrelated publications", "note": "Compare with care: the assays were run in different laboratories. ± gives the spread as reported."}
{"SMILES": "O=c1c(-c2ccc(O)cc2)coc2cc(O)ccc12", "test system": "human, urine", "conditions": "oral, dose not given, 5 h", "quantity": "concentration", "value": "190 ng/mL"}
{"SMILES": "NC(N)=NCCC[C@H](NC(=O)[C@H](Cc1ccccc1)NC(=O)[C@@H]1CCCN1C(=O)[C@H](CO)NC(=O)[C@H](Cc1ccccc1)NC(=O)CNC(=O)[C@@H]1CCCN1C(=O)[C@@H]1CCCN1C(=O)[C@@H](N)CCCN=C(N)N)C(=O)O", "test": "LC-MS/MS", "test system": "human serum, gel separator tube", "conditions": "concentration not given, 4 h, room temperature", "how to read": "relative to: initial concentration", "quantity": "concentration change", "value": "-64.3 ± 18%"}
{"SMILES": "COc1ccc(-n2nc(C(N)=O)c3c2C(=O)N(c2ccc(N4CCCCC4=O)cc2)CC3)cc1", "test system": "healthy Chinese subjects", "conditions": "oral, 10 mg twice daily, 12 h, day 9", "quantity": "concentration", "value": "121 ng/mL"}
{"SMILES": "CO/N=C1\\C[C@]2(C[C@@H]3C[C@@H](C/C=C(\\C)C[C@@H](C)/C=C/C=C4\\CO[C@@H]5[C@H](O)C(C)=C[C@@H](C(=O)O3)[C@]45O)O2)O[C@H](/C(C)=C/C(C)C)[C@H]1C", "test system": "lamb, jejunum mucosa", "conditions": "intraruminal, 0.2 mg/kg, 1 day", "quantity": "concentration", "value": "134 ± 41.7 ng/g"}
{"SMILES": "C[C@@H]1O[C@@H](OC[C@H]2O[C@@H](Oc3c(-c4ccc(O)c(O)c4)oc4cc(O)cc(O)c4c3=O)[C@H](O)[C@@H](O)[C@@H]2O)[C@H](O)[C@H](O)[C@H]1O", "test system": "human, urine", "conditions": "oral, dose not given, 5 h", "quantity": "concentration", "value": "790 ng/mL"}
{"SMILES": "O=C(O)CCS(=O)(=O)O", "test system": "Alzheimer's disease patients, CSF", "conditions": "oral, 150 mg tramiprosate twice daily, week 78", "quantity": "concentration", "value": "22.3 ng/mL"}
{"SMILES": "CS(=O)(=O)n1cc2c(n1)CN([C@H]1CO[C@H](c3cc(F)ccc3F)[C@@H](N)C1)C2", "test system": "healthy Japanese men, plasma", "conditions": "oral, 10 mg single dose, fed, geometric mean", "quantity": "concentration at 168 h", "value": "9.16 nM"}
{"SMILES": "COC(=O)N[C@H](C(=O)N[C@@H](Cc1ccccc1)[C@@H](O)CN(Cc1ccc(-c2ccccn2)cc1)NC(=O)[C@@H](NC(=O)OC)C(C)(C)C)C(C)(C)C", "test system": "Macaca nemestrina, lymph node mononuclear cells", "conditions": "subcutaneous, dose not given, 192 h, free drug combination", "quantity": "concentration", "value": "30 nM"}
{"note": "Repeated from above:"}
{"SMILES": "COC(=O)N[C@H](C(=O)N[C@@H](Cc1ccccc1)[C@@H](O)CN(Cc1ccc(-c2ccccn2)cc1)NC(=O)[C@@H](NC(=O)OC)C(C)(C)C)C(C)(C)C", "test system": "Macaca nemestrina, lymph node mononuclear cells", "conditions": "subcutaneous, dose not given, 192 h, free drug combination", "quantity": "concentration", "value": "30 nM"}
